Results pooled from the literature.
Each numbered part is a random draw from the data of one study; scales do not carry over between parts.
Sequence of UniProt Q9C7I9 (whole entry, looked up): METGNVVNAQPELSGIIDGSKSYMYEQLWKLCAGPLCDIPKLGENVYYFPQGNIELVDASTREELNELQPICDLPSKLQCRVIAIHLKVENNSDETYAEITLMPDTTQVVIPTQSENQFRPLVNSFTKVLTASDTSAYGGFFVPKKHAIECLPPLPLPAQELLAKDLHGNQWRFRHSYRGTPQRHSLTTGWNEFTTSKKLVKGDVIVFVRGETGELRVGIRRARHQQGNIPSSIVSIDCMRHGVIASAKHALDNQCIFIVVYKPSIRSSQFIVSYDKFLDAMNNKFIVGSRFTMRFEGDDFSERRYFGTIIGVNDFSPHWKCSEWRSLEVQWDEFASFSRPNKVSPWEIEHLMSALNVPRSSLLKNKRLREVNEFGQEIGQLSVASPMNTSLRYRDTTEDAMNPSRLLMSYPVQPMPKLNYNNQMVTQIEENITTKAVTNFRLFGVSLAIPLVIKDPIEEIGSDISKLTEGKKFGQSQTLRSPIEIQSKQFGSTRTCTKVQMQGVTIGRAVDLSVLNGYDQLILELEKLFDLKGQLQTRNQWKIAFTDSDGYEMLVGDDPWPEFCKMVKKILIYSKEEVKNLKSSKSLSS
Sequence of UniProt Q9XID4 (whole entry, looked up): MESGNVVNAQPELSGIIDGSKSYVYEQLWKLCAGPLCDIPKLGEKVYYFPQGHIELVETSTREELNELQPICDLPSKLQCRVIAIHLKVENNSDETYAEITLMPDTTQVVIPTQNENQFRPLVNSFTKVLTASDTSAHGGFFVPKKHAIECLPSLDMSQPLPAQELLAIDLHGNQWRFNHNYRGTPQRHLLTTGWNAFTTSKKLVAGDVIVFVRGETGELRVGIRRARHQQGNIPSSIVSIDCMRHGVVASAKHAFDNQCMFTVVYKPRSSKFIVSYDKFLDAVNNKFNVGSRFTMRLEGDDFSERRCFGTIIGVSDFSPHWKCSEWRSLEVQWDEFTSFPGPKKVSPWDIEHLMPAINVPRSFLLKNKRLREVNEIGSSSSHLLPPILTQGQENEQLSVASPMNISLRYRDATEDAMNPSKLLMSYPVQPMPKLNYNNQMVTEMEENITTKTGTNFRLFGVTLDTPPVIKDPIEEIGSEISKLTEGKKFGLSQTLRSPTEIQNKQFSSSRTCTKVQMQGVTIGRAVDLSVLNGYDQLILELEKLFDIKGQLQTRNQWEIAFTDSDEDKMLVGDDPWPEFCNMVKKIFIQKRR
Sequence of UniProt Q9ZTX8 (whole entry, looked up): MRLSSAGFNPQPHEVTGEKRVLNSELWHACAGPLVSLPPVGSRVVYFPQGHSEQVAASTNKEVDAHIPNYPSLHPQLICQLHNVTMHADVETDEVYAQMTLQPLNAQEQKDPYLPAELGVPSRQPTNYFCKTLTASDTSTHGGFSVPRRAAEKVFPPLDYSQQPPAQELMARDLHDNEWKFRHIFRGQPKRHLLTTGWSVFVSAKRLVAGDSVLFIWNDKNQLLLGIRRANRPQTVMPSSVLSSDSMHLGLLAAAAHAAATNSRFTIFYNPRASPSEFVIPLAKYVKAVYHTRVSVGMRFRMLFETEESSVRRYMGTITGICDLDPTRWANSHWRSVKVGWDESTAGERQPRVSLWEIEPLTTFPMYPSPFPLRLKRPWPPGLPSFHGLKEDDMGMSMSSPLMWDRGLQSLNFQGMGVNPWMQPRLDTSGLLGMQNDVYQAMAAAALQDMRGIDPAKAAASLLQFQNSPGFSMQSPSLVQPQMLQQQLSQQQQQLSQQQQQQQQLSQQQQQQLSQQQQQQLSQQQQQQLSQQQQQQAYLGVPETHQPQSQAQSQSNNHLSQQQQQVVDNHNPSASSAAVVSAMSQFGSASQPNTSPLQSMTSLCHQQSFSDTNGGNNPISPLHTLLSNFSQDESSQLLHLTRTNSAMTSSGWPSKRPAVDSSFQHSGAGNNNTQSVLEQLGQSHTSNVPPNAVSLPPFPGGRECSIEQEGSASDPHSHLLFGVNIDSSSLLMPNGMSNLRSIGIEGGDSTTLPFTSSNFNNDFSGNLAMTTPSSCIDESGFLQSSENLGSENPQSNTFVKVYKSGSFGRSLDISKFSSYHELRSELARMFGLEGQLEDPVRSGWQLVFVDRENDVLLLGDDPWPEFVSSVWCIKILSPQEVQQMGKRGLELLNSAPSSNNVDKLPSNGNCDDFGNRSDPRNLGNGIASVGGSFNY
Sequence of UniProt Q93WC4 (whole entry, looked up): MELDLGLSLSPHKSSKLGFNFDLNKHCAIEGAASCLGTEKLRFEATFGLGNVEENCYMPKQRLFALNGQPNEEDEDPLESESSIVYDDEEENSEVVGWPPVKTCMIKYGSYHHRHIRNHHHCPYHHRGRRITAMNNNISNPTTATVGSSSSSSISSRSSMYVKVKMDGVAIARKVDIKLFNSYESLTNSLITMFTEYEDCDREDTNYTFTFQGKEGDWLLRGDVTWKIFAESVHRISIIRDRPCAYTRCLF
Sequence of UniProt Q9C966 (whole entry, looked up): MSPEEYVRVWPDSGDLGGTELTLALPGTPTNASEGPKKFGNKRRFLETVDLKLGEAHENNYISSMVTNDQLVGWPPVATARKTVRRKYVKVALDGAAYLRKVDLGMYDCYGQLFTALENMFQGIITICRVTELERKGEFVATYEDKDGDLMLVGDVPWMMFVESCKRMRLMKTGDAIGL
Sequence of UniProt Q38829 (whole entry, looked up): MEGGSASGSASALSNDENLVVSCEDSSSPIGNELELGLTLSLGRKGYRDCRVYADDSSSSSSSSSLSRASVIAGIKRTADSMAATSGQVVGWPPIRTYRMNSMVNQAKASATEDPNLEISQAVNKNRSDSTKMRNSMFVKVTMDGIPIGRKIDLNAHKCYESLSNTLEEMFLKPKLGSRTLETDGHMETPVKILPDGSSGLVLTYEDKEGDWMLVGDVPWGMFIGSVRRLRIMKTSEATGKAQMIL
Sequence of UniProt Q93YR9 (whole entry, looked up): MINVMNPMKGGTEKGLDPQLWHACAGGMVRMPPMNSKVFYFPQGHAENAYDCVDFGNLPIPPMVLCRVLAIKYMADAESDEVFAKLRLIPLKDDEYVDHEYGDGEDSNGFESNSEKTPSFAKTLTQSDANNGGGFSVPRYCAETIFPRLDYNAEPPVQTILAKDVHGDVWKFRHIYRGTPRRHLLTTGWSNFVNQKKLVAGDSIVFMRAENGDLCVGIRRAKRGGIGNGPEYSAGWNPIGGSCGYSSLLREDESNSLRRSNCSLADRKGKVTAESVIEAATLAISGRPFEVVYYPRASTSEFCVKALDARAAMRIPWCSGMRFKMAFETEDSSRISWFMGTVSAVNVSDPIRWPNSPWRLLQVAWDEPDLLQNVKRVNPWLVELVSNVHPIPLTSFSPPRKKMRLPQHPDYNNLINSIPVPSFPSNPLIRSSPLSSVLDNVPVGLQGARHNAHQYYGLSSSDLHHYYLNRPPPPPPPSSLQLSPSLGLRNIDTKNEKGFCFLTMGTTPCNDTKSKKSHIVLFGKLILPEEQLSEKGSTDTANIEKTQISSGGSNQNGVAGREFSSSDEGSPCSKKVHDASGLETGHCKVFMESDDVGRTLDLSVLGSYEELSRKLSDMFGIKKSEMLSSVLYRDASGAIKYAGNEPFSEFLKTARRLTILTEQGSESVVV

Sample 1
Target: Hepatocyte nuclear factor 3-alpha (Foxa1, Mus musculus, UniProt P35582, residues 1-468, full length assumed)
Method: EMSA with sequencing
Molecule type: double-stranded DNA, one strand shown
Matrix: in vitro
Concentration: 10 and 20 nM
Setting: whole designed probe, mean of two concentrations, ends assumed
Reference: negative control set to 0
Direction: higher = stronger binding
Shared flanks, not repeated: GTGAGCGGTGCCCATTGATGGGGAAC … TTTCACTGGGATCGTGGGGAC
Target sequence (chain): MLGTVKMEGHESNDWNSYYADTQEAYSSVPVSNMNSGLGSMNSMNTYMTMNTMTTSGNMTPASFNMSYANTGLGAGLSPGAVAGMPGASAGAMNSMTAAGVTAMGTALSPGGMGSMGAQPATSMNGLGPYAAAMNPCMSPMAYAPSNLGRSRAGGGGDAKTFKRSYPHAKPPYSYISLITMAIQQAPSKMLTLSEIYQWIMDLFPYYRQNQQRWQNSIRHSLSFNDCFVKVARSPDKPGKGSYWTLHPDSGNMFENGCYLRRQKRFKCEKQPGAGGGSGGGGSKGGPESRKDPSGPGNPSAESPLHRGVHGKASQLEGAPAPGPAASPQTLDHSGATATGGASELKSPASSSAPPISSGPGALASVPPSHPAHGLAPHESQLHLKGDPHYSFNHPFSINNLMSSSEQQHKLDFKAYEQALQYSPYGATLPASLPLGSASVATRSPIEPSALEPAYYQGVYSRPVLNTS
| Oligonucleotide | normalised bound fraction [ratio] |
| --- | --- |
| ATCTTCCCCTGCATTCCCCTCCCCAGTCCTCACCTTCCCGGGTTATTTGCAGATAGGAAAATAAATAAAGCCGGCATTCGTTAACCCTCTTCTGGCGCAAACTGCTGTTTGCTCTGGATGAATCATGGTCCTTTGGCGACGCCAGGCTCCGGGAGAGCAAAGCACCGTGTCAGGGCCATGATCCGGGGTGGCC | 0.344 |
| CAAATGCTATAAAGCCAAGGCGCCCAAGCACCAGGATCCAGGGGCTGGGGTGGCAGCATGCCAGCGCCCTGAGGGCAGTGACAGCTTGCATGTGTGTTTACATACTGTTTGCAAATAAAGAGTAAGTGGGCAGATCCCTGAGCCCTCGTCACTTCCCACCATCCCTGGGGACCCACTGCCTAGTTCAGCTTCC | 0.426 |
| AGCAGAACTAATTTATCAATTCCTTAAATACATATTAATGCATACCAAGGGCAGACACTCTGACTTAATAGGAGGATATTGAGAATAAATATAAGTAAACAAGAAATTTTATAATATGTTAGAAGATAGTAAATGCTGTAAAAAATATTTAGAGTGAGGAAAAGGAGTTCAAGACAGCAGAAAAAAAAGTGAA | 0.406 |
| ATCTTCCCCCTCTTCCTTGCCCCACCAGCTCACCTTCCCGGGTTATTTGCAGATAGGAAAATAAATAAAGCCGGCATTCGTTAACCCTCTTCTGGCGCAAACTGCTGTTTGCTCTGGATGAATCATGGTCCTTTGGCGACGCCAGGCTCCGAGGCGAAGAAGCACCGTGTCAGGGCCATGATCCGGGGTGGCC | 0.331 |
| TCTAAATCTAATCAATTAAAATGGCTTTTTATAAGTAGCTGGATTTTTATGACTGCAAATATTGCTTTCCTGCTTATTTTCCTTCTAATCCTGAGATTACTTAGCTAGTTCAAGGAGTCAAGGCAGTACAGTGTATATAAGGAAGGGCTTTGGCATTAGTCAACTCTGGGTCATATCCTAGTTTCCCAGTTAC | 0.0283 |
| ATCTTCCCCCTCTTCCTTGCCCCACCAGCTCACCTTCCCGGGTATCTGCAAATAAGTATTTATTTTCAAGCCGGCATTCGTTAACCCTCTTCACGCGCATACTGCTGTTTACTTTGGATCTAACATGGTCCTTTGGCGACGCCAGGCTCCGGGAGAGCAAAGCACCGTGTCAGGGCCATGATCCGGGGTGGCC | 0.391 |
| TTTCAAATAAAACAATGTCTTTAAAGAGGACTAAGATTGCAAATGAATGCTTTTAAAGAAATGCAGGAGGATAAATTAGCAAGCAGGAAACAATGTAAACAAATATTTGTGTCCAATTATTGAAAGTGTTTCAATAAGCATGGATAAAGTGGCCTTTAAGCAATCATGATACAGCTAAAAAAGACAATTTTAG | 0.463 |
| TGCCCAGCCTCTTTTCTCCATACAAGTTATTTATTGAAGTATGAATGAATGATGATTGGTGTTTCAATGAGCACTCTTATGGGCCACTGCCTAAGTAAACATCAAGAAGTCTCTGTACCAGATGCAGACTTAGTGGAACAAGTCCAGTTTTGAATGCATGAAGAAAGTGGTTTGGGAGAAGTAAAGTTTAGGC | 0.454 |

Sample 2
Target: PABPC1L2, full length, GST fusion (mouse, UniProt A0ABA7IW68)
Method: RNAcompete
Molecule type: RNA
Matrix: in vitro
Concentration: 20 nM
Setting: 7-mer, probes averaged, single round
Reference: mean of 7-mers
Direction: higher = stronger binding
Target sequence (chain): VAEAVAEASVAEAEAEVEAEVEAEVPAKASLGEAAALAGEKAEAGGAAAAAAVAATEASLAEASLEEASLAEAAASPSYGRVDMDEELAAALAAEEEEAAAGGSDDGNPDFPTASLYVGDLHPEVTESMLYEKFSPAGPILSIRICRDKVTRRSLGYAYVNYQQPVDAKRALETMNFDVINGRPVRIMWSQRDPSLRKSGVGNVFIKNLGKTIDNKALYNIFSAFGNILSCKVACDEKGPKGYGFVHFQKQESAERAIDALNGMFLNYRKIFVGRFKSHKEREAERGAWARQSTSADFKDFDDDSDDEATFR
| Oligonucleotide | 7-mer Z-score |
| --- | --- |
| GCUGCCG | -0.184 |
| GUGUCCU | -0.186 |
| CGUUCCG | -0.411 |
| UUUCGGA | -0.137 |
| CUGAUAC | -0.264 |
| CGGAUGC | -0.0609 |
| GCGGGUC | 0.347 |
| GUCACCA | -0.0971 |
| AGAAGAA | 0.541 |
| AAUCUAG | 0.151 |
| UCAUCGG | -0.191 |
| CUCGCAG | -0.324 |
| AAAGCAG | 1.42 |
| GCCCGGC | -0.315 |
| UUCCAUC | -0.4 |
| GAGGCUC | -0.00289 |
| GAGUGAA | 0.0315 |
| CAUCCCC | -0.44 |
| CUGGCCG | -0.166 |
| GACUCGG | 0.0261 |
| CAUCAUA | -0.0609 |
| UUUACCC | -0.191 |
| GGGGAUC | 0.305 |
| CUAGGCC | -0.22 |
| CAGAAGG | 0.0551 |

Sample 3
Sequence: B1 (IAA3)
Method: two-hybrid
Reference: out of 4 tests
Direction: higher = firmer interaction
B1: IAA3 (Arabidopsis thaliana, UniProt Q38822); chain MDEFVNLKETELRLGLPGTDNVCEAKERVSCCNNNNKRVLSTDTEKEIESSSRKTETSPPRKAQIVGWPPVRSYRKNNIQSKKNESEHEGQGIYVKVSMDGAPYLRKIDLSCYKGYSELLKALEVMFKFSVGEYFERDGYKGSDFVPTYEDKDGDWMLIGDVPWEMFICTCKRLRIMKGSEAKGLGCGV
| partner | setting | positive tests |
| --- | --- | --- |
| IAA15 (Arabidopsis thaliana, UniProt Q9C966) |  | 4 |
| IAA9 (Arabidopsis thaliana, UniProt Q38827) |  | 4 |
| ARF6 790-935 (Arabidopsis thaliana, UniProt Q9ZTX8) |  | 3 |
| ARF16 570-670 (Arabidopsis thaliana, UniProt Q93YR9) |  | 0 |
| IAA29 (Arabidopsis thaliana, UniProt Q93WC4) |  | 0 |
| ARF12 500-593 (Arabidopsis thaliana, UniProt Q9XID4) |  | 0 |
| ARF20 484-590 (Arabidopsis thaliana, UniProt Q9C7I9) |  | 0 |
| IAA11 (Arabidopsis thaliana, UniProt Q38829) | weak activation fusion | 1 |

Sample 4
Target: Histone acetyltransferase KAT6A, both winged helices, GST fusion (KAT6A, Homo sapiens, UniProt Q92794, residues 1-181)
Method: protein binding microarray
Molecule type: double-stranded DNA, one strand shown
Matrix: in vitro
Concentration: not given
Setting: 8-mer, flanks averaged, mean of 2 arrays, mostly near background
Reference: not given
Direction: higher = stronger binding
Construct (chain): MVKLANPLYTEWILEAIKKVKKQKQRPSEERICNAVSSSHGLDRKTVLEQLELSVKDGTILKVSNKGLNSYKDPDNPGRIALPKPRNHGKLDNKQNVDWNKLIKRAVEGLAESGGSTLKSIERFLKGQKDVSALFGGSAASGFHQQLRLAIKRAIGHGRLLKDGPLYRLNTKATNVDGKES
| Oligonucleotide | E-score |
| --- | --- |
| CGTTAGTC | -0.0293 |
| AGTAGTGC | -0.0266 |
| GAACATTC | -0.0336 |
| AAGACAAC | -0.0722 |
| AAAGCATT | -0.193 |
| ACTGCTCA | -0.0869 |
| AACCAGCG | 0.146 |
| GTTAGTCA | 0.065 |
| GACCGGAA | 0.149 |
| AAAACCCC | -0.129 |
| GAACCAGC | 0.0317 |
| AGGTGCAG | -0.16 |
| CACACTAG | -0.0872 |
| CACGTAAA | -0.00434 |
| AGACGTAG | -0.157 |
| AGTACAGG | -0.144 |
| CTTGGCTC | -0.215 |

Sample 5
Target: Ras GTPase-activating protein-binding protein 1, C-terminal RGG region (G3BP1, Homo sapiens, UniProt Q13283)
Sequence of UniProt Q13283 (whole entry, looked up): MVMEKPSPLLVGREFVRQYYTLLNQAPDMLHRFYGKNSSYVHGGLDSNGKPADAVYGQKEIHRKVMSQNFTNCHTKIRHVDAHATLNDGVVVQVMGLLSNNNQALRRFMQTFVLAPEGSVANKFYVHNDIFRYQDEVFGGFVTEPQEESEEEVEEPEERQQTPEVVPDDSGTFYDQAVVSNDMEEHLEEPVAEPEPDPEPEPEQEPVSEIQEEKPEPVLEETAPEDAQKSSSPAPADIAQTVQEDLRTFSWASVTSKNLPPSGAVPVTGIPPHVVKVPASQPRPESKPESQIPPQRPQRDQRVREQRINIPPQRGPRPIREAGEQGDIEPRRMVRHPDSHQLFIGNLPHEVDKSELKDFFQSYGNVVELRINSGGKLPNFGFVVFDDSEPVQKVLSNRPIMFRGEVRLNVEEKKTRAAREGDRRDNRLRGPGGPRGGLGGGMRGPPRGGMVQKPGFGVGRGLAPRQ
Method: RNA Bind-n-Seq
Molecule type: RNA
Matrix: in vitro
Concentration: 1 µM
Setting: whole 134-nt RNA, ends assumed
Together with: 150 mM KCl
Reference: input library
Direction: higher = stronger binding
Shared flanks, not repeated: GGGAGUUCUACAGUCCGACGAUC … UGGAAUUCUCGGGUGUCAAGG
| Oligonucleotide | log2 enrichment |
| --- | --- |
| CAAGUCCUGUGCUACACAUCGUAUGUACCGAAUCGGUGGUUUUUUUGGAAAAAGGAAAGUAUUAUGUUACGCCGUUCGGAUCUGCACUUC | -1.63 |
| ACCAUGCAGGUGGGCAUCUUUGGGAAGUGGGGCAAGGGGGGGAUAGGGAGGGGGGUAACACUUUGGGAACAAGUGGUCCCAGGUCGUUUC | 2.63 |
| AGUCCUGUGCUACACAUCGUAUGUACCGAAUCGGGUUUUUGGGAAAAAGGGUUUGGGAAAGUAUUAUGUUACGCCGUUCGGAUCUGCACU | 0.74 |
| UGGCCCUGGUGGCAUGCGGGGAGGAAGAGGUGGCCUCAUGGAUCGUGGUGGUCCCGGUGGAAUGUUCAGAGGUGGCCGUGUUGGAGACAG | 3.44 |
| UCCUGUGCUACACAUCGUAUGUACCGAAUCGGCCCCCCGGCCCCCCGGGCCCCCCGGGGAAAGUAUUAUGUUACGCCGUUCGGAUCUGCA | -1.12 |
| UCAAGUCCUGUGCUACACAUCGUAUGUACCGAAUCGGAAAAGGAAAAGGAAAAGGAAAGUAUUAUGUUACGCCGUUCGGAUCUGCACUUC | -1.84 |
| ACCAUGCAGGUGGGCAUCUUUGGGAAGUGGGGCAAGGGGGGGAUAGGGAGAAAGGUAACACUUUGGGAACAGGUGGUCCCAGGUCGUUUC | -1.11 |
| AGUCCUGUGCUACACAUCGUAUGUACCGAAUCGGGCCCCGGGGCCCCGGGCCCCGGGAAAGUAUUAUGUUACGCCGUUCGGAUCUGCACU | -2.83 |
| CCUGUGCUACACAUCGUAUGUACCGAAUCGGGAAAAAAAGGGAAAAAGGGAAAAAAAGGGAAAGUAUUAUGUUACGCCGUUCGGAUCUGC | -1.85 |
| UAACUUUAGAGGAGGAUCUGAUGGAUAUGGCAGUGGACGAGGAUUUGGGGAUGGCUAUAAUGGGUAUGGAGGAGGACCUGGAGGUGGCAA | -0.972 |
| CAAGUCCUGUGCUACACAUCGUAUGUACCGAAUCGGGAAAAAAAGGGUGGGAGGGAAAGUAUUAUGUUACGCCGUUCGGAUCUGCACUUC | 1.36 |
| GUCCUGUGCUACACAUCGUAUGUACCGAAUCGGGGAAAAAGGGAAAAAGGAAAAAGGGGAAAGUAUUAUGUUACGCCGUUCGGAUCUGCA | -0.889 |
| UGGUGUUAUUUUUGCACUACAAGGGCUCUGAAGACUGCCAGGCUUGAAAUGAAGAACGAUGUCACCUGCCUAUCACAGCCAGGUGACAAU | -2.26 |
| CACAGACAACACGCACCCACACAGACACAGAGGGAAGGGGUUGGGAUGGGGACAGGGUGCACAGCACGGCGGGGUAGGACCCCAGCCCCU | -1.13 |

For quick reference, copied from above (sample 4):
| Oligonucleotide | E-score |
| --- | --- |
| CGTTAGTC | -0.0293 |
| AGACGTAG | -0.157 |
| ACTGCTCA | -0.0869 |
| AGTACAGG | -0.144 |
| AGGTGCAG | -0.16 |
| AAGACAAC | -0.0722 |
